# Published values collected from several papers.
# Every numbered part comes from another study and shows a few of its results, in no order. Positions count from the first letter of the parent shown.

# Set 1 — method: RNA Bind-n-Seq; molecule type: RNA; sample: in vitro; concentration: 365 nM; relative to: no-protein control; direction: higher = stronger binding
# Target: RNA binding protein fox-1 homolog 2, RRM domain, GST-SBP tag (RBFOX2, Homo sapiens, UniProt O43251-10, residues 100-194)
# Setting: natural RNA segment, single round, ends assumed
# All sequences stand within: GGGAGUUCUACAGUCCGACGAUC … UGGAAUUCUCGGGUGCCAA
# Target sequence (chain): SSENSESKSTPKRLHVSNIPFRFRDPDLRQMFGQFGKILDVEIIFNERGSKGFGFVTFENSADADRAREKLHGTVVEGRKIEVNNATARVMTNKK
Strand,RBNS enrichment (R)
UGUGUACACUAAUGCUGUACUAGAUUCCCACAGAACAUCUAGCAAACAAAACUGAUACAAUCUGCUGCCUAUUGUUUGAGGACCCACUGAGUAAUGUUUGUGGCUAUUAA,0.492
GUACAUAUCACUACAGUUAUAGGAAGUUUCAGUCUACAGUCCAUCCAAAGGACCAACCUGCCUUACACAUCUCAAGGAAUUCAGCUGUUGAAAUCAUUUGAACUAAUCAA,0.324
GGGCAAUGUCACCCUCCUGGUAGGUAGUCCUAGACCCCUCCUGCCUCUUGCUCUCCAAUGGGGAGACCAUGUUUCCUAGAGUGUGAGCUGCCCCUCACCCCCUGAAAAGC,0.227
ACUGUAUUAAUAAACAUACAACACAAGCUGGCCUUGUGUUGCUGGUUCCUAUUCAGUAUUUCCUGGGGAUUGUUUGCUUUUUAAGUAAAACACUUCUGACCCAUAGCUCA,0.177
ACUUGUUCUAGUGAGUGGUGGGACUGUACAUUUUUGAAUAGACCUCAAAAAUACUUCAUUCUGCUGCUGUUCAGUUGGCUUUUUAAACCUGUCUGCAGUAGGACACUGAA,0.233
AGAAGCCAGAGUCACCGAAGGAUUCUCCUUUUCCGACGCGCUUGGAGUGAACUACACAUAGACCACACUGCGGGGCGAGAGCAUUACAUAACAUGGCCACUAGGAGGGUU,0.493
CUCUUCCUUGUAGGGCCCUUUCCUUAUUCAUUUAGGUAGUGUGAACAUUAAGUAUAAAAUAAAUUAUGUUCUUAAUGCCUCUUAAACCACUUACAUUCAAAGGGGAACAG,0.326
AGCAUAGGUCUCUCUCUGCACAGUGUUGGUUCCUCCAGCCUAACCUUUGGCUUUGGGAAGGAAGAGAUGACCGUAAUCUUGCAACAAGAGUGCCCAACCAGGGACCACUG,0.372

# Set 2 — target: CCNA1, cyclin fold, Cln2 fusion (human); method: yeast growth competition, sequencing; sample: yeast; setting: strong parent motif; relative to: not given; direction: higher = stronger binding
# Starting sequence: RBL2 docking peptide (human); STTRRRLFVENDS; partner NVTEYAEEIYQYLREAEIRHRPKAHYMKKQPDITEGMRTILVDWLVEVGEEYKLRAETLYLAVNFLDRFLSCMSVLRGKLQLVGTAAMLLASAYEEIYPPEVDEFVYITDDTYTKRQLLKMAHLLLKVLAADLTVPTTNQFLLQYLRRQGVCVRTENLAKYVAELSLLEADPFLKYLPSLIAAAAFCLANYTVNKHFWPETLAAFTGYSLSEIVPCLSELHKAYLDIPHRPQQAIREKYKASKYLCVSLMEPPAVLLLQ
Variant,normalised enrichment score
STTRRILFVENDS [R6I],0.45
STHRRRLFVENDS [T3H],0.234
STTRRRLFVENDD [S13D],0.772
STTRARLFVENDS [R5A],0.0287
STTRRDLFVENDS [R6D],0.369
STTRRRLFVENDG [S13G],0.64
STTRRRLFVKNDS [E10K],0.209
STTRRNLFVENDS [R6N],0.284
SKTRRRLFVENDS [T2K],0.838
YTTRRRLFVENDS [S1Y],0.669
STTRRRGFVENDS [L7G],-0.332
STTRRRLTVENDS [F8T],0.43
STTRRRLFVEVDS [N11V],0.476
STTRRRLFVENDN [S13N],0.523
STTRRRLFVENVS [D12V],0.616
STTRRGLFVENDS [R6G],0.413
STTRKRLLVENDS [R5K F8L],-0.158
STTRRRLFVENKS [D12K],0.77
STTRTRLFVENDS [R5T],0.896
STTRRRLFKENDS [V9K],0.444
STTHRRLFVENDS [R4H],0.425
STTRRRTFVENDS [L7T],0.524
STPRRRLFVENDS [T3P],0.0743
STTRRRLFVELDS [N11L],0.563
STTRRRLFDENDS [V9D],0.465

# Set 3 — method: DHFR PCA, deep sequencing; sample: yeast; with: (+)-ABA 0.39 µM; relative to: wild-type fitted maximum; direction: higher = stronger binding
# Target: ABI1, truncated, D143A, DHFR fusion (Arabidopsis thaliana)
# Setting: methotrexate growth selection, single substitutions
# Starting sequence: PYL1, truncated, DHFR fusion (Arabidopsis thaliana); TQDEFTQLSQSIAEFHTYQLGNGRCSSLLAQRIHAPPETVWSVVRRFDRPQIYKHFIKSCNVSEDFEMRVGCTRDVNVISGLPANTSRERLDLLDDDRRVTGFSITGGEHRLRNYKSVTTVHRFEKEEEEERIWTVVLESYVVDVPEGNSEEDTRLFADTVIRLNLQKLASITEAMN; partner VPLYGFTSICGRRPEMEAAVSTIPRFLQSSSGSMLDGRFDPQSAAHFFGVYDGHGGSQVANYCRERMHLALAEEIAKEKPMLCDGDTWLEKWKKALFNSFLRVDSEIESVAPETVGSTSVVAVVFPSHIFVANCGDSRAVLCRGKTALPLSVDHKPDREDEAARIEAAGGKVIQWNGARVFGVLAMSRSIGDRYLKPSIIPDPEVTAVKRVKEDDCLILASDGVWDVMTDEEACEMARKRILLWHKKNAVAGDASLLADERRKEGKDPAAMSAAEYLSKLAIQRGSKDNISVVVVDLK
Variant,relative binding score
F66L,0.917%
E129I,22.4%
P36I,-6.33%
F157N,-3.08%
E151W,6.57%
I162L,0.313%
W134D,33.6%
S63Y,0.554%
S63G,57.4%
E152F,-0.97%
L164P,15.1%
G81L,3.12%
F5H,18.5%
G81C,17.5%
D3F,40.4%
S11I,40.2%
V40G,-4.44%
E131K,67.7%
L169T,-11.7%

# Set 4 — method: RNA Bind-n-Seq; molecule type: RNA; sample: in vitro; concentration: 200 nM; setting: whole 134-nt RNA, ends assumed; with: 150 mM KCl; relative to: input library; direction: higher = stronger binding
# Target: Ras GTPase-activating protein-binding protein 1, full length (G3BP1, Homo sapiens, UniProt Q13283)
# Chain of UniProt Q13283 (whole entry, looked up): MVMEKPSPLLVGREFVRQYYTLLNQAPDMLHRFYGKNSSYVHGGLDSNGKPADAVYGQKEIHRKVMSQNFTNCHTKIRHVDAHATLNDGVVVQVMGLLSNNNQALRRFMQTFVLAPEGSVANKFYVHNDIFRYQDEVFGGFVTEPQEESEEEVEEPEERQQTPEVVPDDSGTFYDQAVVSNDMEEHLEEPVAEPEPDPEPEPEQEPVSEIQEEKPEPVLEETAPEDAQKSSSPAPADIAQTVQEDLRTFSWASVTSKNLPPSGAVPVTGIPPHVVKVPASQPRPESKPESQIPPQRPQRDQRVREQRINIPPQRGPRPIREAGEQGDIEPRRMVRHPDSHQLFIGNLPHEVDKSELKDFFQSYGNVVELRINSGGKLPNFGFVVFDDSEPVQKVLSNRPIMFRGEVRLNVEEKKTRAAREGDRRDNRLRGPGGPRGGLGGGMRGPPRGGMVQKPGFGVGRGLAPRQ
# All sequences stand within: GGGAGUUCUACAGUCCGACGAUC … UGGAAUUCUCGGGUGUCAAGG
Strand,log2 enrichment
GUGCUACACAUCGUAUGUACCGAAUCGGGGUUUUUUUGGGGUUUUUUUGGGGAAAAAAAGGGGAAAGUAUUAUGUUACGCCGUUCGGAUC,-0.469
UGGGAAGUGGAUUUUGUUUAUUUUUUUAGCUCAUUUCCAGGGGUGGGAAUUUUUUUUUAAUAUGUGUCAUGAAUAAAGUUGUUUUUGAAA,-0.237
ACCAUGCAUGUGGGCAUCUUUGGGAAGUGGGGCAAGGGGGGGAUAGGGAGGGGGGUAACACUUUGGGAACAGGUGGUCCCAGGUCGUUUC,1.11
UCAAGUCCUGUGCUACACAUCGUAUGUACCGAAUCGGGGUUGGGGUUGGGUUGGGAAAGUAUUAUGUUACGCCGUUCGGAUCUGCACUUC,0.68
CAAGUCCUGUGCUACACAUCGUAUGUACCGAAUCGGGCCCGGGGCCCGGGCCCGGGAAAGUAUUAUGUUACGCCGUUCGGAUCUGCACUU,-1.02
UCAAGUCCUGUGCUACACAUCGUAUGUACCGAAUCGGAAAGGAAAAAAAGGAGGAAAGUAUUAUGUUACGCCGUUCGGAUCUGCACUUCC,-0.778
UAACUUUAGAGGAGGAUCUGAUGGAUAUGGCAGUGGACGUGGAUUUGGGGAUGGCUAUAAUGGGUAUGGAGGAAGACCUGGAGGUGGCAA,0.135
ACCAUGCAGGUGGGCAUCUUUGGGAAGUGGGGCAAGGGGGGGAUAGGGAGGGGGGUAACACUUUGGGAAGAGGUGGUCCCAGGUCGUUUC,1.25
UUCUUUGCCCAACGGGGCCGUGGAUACCUGCCUUUUAAUUCUUUUUUAUUCGCCCAUCGGGGCCGCGGAUACCUGCUUUUUAUUUUUUUU,0.193

# Set 5 — method: protein binding microarray; molecule type: double-stranded DNA, one strand shown; sample: in vitro; concentration: not given; relative to: not given; direction: higher = stronger binding
# Target: Histone acetyltransferase KAT6A, winged helix 2, GST fusion (KAT6A, Homo sapiens, UniProt Q92794, residues 85-181)
# Setting: 8-mer, flanks averaged, mean of 2 arrays, mostly near background
# Residues (chain): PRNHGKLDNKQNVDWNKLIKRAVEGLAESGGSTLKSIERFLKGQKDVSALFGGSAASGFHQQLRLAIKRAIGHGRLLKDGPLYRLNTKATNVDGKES
Strand,E-score
GCCGGATA,0.164
CTGGGGAA,-0.0588
ACGCTTCT,-0.237
AGAACTAA,-0.00414
GCGACGAA,0.221
TAACAGGA,-0.0436
ATGCTTAA,-0.0795
CGTCAGTC,-0.136
AAGAGAGG,0.0894
CCGTCCTA,-0.243
ATCCGTGA,0.0906
GCTATTTA,-0.122
GGAAAATA,0.0465
ACCCAGCT,-0.118
GCACTACC,-0.0254
GTTTCACA,0.0366
CAGCCTAA,-0.0893
AGCTATCC,-0.203

# Repeated from above (set 1):
Strand,RBNS enrichment (R)
GGGCAAUGUCACCCUCCUGGUAGGUAGUCCUAGACCCCUCCUGCCUCUUGCUCUCCAAUGGGGAGACCAUGUUUCCUAGAGUGUGAGCUGCCCCUCACCCCCUGAAAAGC,0.227
AGCAUAGGUCUCUCUCUGCACAGUGUUGGUUCCUCCAGCCUAACCUUUGGCUUUGGGAAGGAAGAGAUGACCGUAAUCUUGCAACAAGAGUGCCCAACCAGGGACCACUG,0.372
GUACAUAUCACUACAGUUAUAGGAAGUUUCAGUCUACAGUCCAUCCAAAGGACCAACCUGCCUUACACAUCUCAAGGAAUUCAGCUGUUGAAAUCAUUUGAACUAAUCAA,0.324
ACUUGUUCUAGUGAGUGGUGGGACUGUACAUUUUUGAAUAGACCUCAAAAAUACUUCAUUCUGCUGCUGUUCAGUUGGCUUUUUAAACCUGUCUGCAGUAGGACACUGAA,0.233
CUCUUCCUUGUAGGGCCCUUUCCUUAUUCAUUUAGGUAGUGUGAACAUUAAGUAUAAAAUAAAUUAUGUUCUUAAUGCCUCUUAAACCACUUACAUUCAAAGGGGAACAG,0.326
